Results pooled from the literature.
Compare with care: the assays were run in different laboratories. Several values in a cell are separate wells, animals, samples, runs or records. ± gives the spread as reported.
Tumor necrosis factor receptor superfamily member 9/Nectin-4: Tumor necrosis factor receptor superfamily member 9/Nectin-4 (Homo sapiens, UniProt Q07011+Q96NY8)
Chain of UniProt Q07011 (whole entry, looked up): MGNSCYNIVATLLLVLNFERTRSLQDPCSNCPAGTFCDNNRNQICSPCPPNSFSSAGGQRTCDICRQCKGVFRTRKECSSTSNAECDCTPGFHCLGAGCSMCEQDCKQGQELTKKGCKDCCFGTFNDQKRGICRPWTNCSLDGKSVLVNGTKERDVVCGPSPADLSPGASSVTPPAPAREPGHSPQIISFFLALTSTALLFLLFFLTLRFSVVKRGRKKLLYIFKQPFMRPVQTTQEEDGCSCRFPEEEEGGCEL
Chain of UniProt Q96NY8 (whole entry, looked up): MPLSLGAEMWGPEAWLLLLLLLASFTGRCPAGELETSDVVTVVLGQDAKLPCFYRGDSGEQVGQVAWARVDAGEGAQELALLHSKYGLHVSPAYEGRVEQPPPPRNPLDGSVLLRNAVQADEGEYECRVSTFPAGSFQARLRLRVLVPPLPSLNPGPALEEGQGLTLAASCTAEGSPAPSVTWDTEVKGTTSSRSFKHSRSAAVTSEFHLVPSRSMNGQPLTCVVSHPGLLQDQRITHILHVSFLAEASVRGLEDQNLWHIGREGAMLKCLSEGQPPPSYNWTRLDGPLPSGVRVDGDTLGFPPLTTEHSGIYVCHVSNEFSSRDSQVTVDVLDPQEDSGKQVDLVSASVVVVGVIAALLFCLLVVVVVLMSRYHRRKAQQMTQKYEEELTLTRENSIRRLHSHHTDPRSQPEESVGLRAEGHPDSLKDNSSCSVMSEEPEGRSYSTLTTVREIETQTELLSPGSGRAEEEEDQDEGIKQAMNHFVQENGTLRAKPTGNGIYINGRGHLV
HOG1: Mitogen-activated protein kinase HOG1 (HOG1, Candida albicans, UniProt Q92207)
Chain of UniProt Q92207 (whole entry, looked up): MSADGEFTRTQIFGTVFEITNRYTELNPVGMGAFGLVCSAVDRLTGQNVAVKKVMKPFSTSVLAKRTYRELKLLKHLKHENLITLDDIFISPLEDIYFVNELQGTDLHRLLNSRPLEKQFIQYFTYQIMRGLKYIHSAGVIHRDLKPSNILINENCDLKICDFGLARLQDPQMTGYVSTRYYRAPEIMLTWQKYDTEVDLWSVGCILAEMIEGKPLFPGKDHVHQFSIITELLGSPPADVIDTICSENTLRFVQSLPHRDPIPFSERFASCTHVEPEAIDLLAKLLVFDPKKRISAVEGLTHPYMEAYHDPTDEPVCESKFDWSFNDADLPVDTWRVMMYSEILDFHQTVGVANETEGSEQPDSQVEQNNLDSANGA
TRPV1: Transient receptor potential cation channel subfamily V member 1 (TRPV1, Homo sapiens, UniProt Q8NER1)
Chain of UniProt Q8NER1 (whole entry, looked up): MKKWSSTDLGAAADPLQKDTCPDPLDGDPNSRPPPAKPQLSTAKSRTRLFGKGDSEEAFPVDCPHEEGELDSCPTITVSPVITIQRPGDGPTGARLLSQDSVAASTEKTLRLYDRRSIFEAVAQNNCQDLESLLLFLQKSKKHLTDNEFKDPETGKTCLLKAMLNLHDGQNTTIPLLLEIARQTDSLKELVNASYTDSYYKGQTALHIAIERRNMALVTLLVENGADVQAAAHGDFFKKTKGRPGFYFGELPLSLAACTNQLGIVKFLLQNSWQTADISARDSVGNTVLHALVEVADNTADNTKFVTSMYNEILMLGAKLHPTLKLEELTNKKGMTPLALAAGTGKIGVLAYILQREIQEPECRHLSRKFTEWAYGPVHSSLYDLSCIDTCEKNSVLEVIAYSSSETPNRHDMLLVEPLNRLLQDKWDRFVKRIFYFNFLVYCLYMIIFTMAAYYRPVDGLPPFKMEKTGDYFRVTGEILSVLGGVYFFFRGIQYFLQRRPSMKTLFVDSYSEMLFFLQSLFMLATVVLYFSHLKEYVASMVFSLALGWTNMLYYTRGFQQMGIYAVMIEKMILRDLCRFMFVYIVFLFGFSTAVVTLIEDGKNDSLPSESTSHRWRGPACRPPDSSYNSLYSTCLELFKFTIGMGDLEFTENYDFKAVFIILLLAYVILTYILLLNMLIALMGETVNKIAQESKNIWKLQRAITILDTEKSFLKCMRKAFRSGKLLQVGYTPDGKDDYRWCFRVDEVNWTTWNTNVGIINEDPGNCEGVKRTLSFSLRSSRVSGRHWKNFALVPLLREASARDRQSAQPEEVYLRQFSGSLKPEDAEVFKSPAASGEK
T1: ssDNA, aptamer; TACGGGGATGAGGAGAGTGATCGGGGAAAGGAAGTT
T2: riboswitch RNA yjdF aptamer, L3 replaced by GAAA (Bacillus subtilis); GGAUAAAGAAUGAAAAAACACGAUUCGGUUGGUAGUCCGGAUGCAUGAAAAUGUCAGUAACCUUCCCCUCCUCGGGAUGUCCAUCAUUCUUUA
Chain of UniProt Q16774 (whole entry, looked up): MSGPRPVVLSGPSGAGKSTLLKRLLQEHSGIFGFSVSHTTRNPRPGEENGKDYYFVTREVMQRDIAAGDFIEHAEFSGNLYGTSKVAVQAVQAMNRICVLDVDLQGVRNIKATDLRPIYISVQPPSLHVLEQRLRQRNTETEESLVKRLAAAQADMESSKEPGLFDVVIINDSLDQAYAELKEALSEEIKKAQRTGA
Chain of UniProt Q16853 (whole entry, looked up): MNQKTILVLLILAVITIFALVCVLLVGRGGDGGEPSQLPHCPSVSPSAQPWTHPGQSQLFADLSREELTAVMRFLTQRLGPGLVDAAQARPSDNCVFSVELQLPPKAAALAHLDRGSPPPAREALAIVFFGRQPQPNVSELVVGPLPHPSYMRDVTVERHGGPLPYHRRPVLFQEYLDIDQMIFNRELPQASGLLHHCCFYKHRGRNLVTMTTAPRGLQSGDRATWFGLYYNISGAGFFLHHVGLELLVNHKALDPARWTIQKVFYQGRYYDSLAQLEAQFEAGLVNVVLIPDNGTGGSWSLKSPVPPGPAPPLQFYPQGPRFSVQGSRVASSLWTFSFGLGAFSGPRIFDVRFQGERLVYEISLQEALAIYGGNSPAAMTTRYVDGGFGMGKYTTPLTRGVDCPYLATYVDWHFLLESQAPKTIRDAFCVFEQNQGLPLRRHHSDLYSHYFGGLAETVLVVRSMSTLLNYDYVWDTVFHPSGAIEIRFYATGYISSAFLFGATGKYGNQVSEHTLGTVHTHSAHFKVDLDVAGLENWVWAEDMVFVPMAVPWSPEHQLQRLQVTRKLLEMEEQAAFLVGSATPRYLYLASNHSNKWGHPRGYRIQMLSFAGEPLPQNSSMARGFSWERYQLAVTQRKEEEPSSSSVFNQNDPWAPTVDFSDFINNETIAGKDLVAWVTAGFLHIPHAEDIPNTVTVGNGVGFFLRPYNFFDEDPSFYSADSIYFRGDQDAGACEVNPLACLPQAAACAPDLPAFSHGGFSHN
Chain of UniProt Q8IWT6 (whole entry, unmodified, looked up): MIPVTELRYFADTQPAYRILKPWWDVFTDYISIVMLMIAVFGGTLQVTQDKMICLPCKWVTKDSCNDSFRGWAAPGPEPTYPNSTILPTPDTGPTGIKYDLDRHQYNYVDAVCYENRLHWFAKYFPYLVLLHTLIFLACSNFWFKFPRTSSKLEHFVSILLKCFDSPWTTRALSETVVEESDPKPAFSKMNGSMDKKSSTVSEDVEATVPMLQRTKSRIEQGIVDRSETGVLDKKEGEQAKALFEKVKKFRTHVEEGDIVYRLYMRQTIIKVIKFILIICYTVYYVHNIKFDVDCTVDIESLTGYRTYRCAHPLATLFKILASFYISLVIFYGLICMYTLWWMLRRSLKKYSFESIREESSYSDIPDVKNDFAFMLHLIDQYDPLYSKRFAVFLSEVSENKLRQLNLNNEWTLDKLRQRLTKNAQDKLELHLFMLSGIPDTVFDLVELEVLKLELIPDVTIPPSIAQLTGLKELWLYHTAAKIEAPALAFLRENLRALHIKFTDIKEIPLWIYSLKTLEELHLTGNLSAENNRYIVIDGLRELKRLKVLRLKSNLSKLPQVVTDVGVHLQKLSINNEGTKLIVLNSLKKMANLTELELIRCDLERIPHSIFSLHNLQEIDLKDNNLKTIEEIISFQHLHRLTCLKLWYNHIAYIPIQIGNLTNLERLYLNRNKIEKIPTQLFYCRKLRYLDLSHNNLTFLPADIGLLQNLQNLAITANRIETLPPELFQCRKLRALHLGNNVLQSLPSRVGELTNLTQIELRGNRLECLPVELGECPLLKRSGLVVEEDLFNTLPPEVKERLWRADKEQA
Chain of UniProt P22736 (whole entry, looked up): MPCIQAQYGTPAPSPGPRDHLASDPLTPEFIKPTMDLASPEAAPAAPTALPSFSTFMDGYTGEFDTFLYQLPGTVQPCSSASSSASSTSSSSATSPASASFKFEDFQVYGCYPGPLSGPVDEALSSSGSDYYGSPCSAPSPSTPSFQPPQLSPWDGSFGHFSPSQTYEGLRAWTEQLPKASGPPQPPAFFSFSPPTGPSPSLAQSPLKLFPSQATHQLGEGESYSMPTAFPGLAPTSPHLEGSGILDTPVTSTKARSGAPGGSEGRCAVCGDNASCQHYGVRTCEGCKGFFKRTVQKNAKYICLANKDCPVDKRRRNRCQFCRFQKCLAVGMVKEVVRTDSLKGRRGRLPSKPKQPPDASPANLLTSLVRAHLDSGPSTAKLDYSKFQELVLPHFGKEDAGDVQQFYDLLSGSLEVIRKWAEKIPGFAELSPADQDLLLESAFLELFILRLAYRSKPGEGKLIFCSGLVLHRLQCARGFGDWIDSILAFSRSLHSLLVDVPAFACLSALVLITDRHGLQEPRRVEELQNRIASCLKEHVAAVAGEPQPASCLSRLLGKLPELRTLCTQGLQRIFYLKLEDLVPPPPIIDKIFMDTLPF
Chain of UniProt P31941 (whole entry, looked up): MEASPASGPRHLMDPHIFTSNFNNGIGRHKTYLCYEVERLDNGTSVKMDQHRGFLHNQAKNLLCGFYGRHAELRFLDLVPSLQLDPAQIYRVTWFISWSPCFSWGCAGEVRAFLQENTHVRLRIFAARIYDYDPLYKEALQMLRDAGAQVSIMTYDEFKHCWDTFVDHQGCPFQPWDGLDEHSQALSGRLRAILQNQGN
Chain of UniProt P51817 (whole entry, looked up): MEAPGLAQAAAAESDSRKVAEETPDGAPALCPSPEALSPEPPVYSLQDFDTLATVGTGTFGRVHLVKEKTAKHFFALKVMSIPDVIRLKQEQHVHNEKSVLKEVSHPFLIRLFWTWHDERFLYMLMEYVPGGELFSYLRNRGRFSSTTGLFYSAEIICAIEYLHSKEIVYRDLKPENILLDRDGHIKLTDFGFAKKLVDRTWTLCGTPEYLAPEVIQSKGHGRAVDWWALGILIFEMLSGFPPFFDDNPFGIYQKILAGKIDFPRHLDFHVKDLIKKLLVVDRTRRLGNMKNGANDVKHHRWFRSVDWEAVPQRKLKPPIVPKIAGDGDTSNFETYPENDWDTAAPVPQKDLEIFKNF

CCOC(=O)c1c(NC(=O)CNC(C)C)sc2c1CCCCC2 — peak current density (SCN8A (Homo sapiens, UniProt Q9UQD0); sodium current, whole-cell voltage clamp; HEK cells; 20 µM): -34.9 pA/pF
Nc1ncnc2c1ncn2[C@@H]1O[C@H](COP(=O)(O)OP(=O)(O)O)[C@@H](O)[C@H]1O — Kd (T1, ssDNA, aptamer; molecular beacon fluorescence quenching): 29 µM
FC(F)(F)c1cccc(-c2n[nH]c(=S)o2)c1 — fluorescence increase (P2X purinoceptor 2 (P2RX2, Homo sapiens, UniProt Q9UBL9); calcium mobilization; MCF7 stably transfected; 100 µM, added: ATP 100 µM): 85.4 ± 2.45%
O=C(Nc1cccc2c(=O)cc(-c3nnn[nH]3)oc12)c1ccc(OCCCCc2ccccc2)cc1 — inhibition (LRRC8A/LRRC8C (Homo sapiens, UniProt Q8IWT6+Q8TDW0, M48D/T48D); ion current, whole-cell patch clamp; HCT LRRC8-/- cells; 3 µM, -100 mV, T48D/M48D heteromers): 1.33% and 15.6% and 2.55%
C=CC(=O)N1CCC(C(=O)NCC(=O)N2CCN(c3nc(-c4cnc(N)nc4C(F)F)nc(N4CCOCC4)n3)CC2)CC1 — remaining binding (PRKX (Homo sapiens, UniProt P51817); KINOMEscan; 1 µM): 100%
Nc1ncnc2c1ncn2[C@@H]1O[C@H](COP(=O)(O)OP(=O)(O)O)[C@@H](O)[C@H]1O — kcat (CKMT1A (Homo sapiens, UniProt P12532, H99A); substrate, Kinase-Glo luminescence; pH 7.0, reverse reaction, H61A mutant, added: second substrate in excess): 28 ± 1 s⁻¹
CCCC[C@@H]1NC(=O)[C@H](Cc2ccc(O)cc2)NC(=O)[C@H](C)N(C)C(=O)[C@H](CC(=O)O)NC(=O)[C@H](C)NC(=O)[C@H](Cc2ccccc2)NC(=O)[C@@H]2CSCCC(=O)N3CN(CN(C3)C(=O)CCSC[C@H](NC(C)=O)C(=O)N[C@@H](CC(C)(C)C)C(=O)N3CCC[C@H]3C(=O)N[C@@H](CCC(=O)O)C(=O)N[C@H](CCCCNC(=O)CCc3cn(CCOCCOCCOCCN(CCOCCOCCOCCC(=O)N[C@H]4CSCCC(=O)N5CN6CN(C5)C(=O)CCSC[C@H](NC(=O)[C@@H](CC(=O)O)NC(=O)[C@H](Cc5cccc7ccccc57)NC(=O)[C@@H]5CCCN5C4=O)C(=O)N[C@@H](CCSC)C(=O)N[C@@H](CCCCNC(=N)N)C(=O)N[C@@H](CC(=O)O)C(=O)N[C@@H](Cc4c[nH]c5ccccc45)C(=O)N[C@@H](CO)C(=O)N[C@@H]([C@@H](C)O)C(=O)N4CCC[C@H]4C(=O)N4C[C@H](O)C[C@H]4C(=O)N[C@@H](Cc4c[nH]c5ccccc45)C(=O)N[C@H](C(N)=O)CSCCC6=O)CCOCCOCCOCCn4cc(CCC(=O)NCCCC[C@H]5NC(=O)[C@H](CCC(=O)O)NC(=O)[C@@H]6CCCN6C(=O)[C@H](CC(C)(C)C)NC(=O)[C@@H](NC(C)=O)CSCCC(=O)N6CN7CN(C6)C(=O)CCSC[C@H](NC(=O)[C@H](Cc6ccc(O)cc6)NC(=O)[C@@H]6CCCN6C5=O)C(=O)N[C@@H](Cc5ccccc5)C(=O)N[C@@H](C)C(=O)N[C@@H](CC(=O)O)C(=O)N(C)[C@@H](C)C(=O)N[C@@H](Cc5ccc(O)cc5)C(=O)N[C@@H](CCCC)C(=O)N[C@H](C(N)=O)CSCCC7=O)nn4)nn3)C(=O)N3CCC[C@H]3C(=O)N[C@@H](Cc3ccc(O)cc3)C(=O)N2)C(=O)CCSC[C@@H](C(N)=O)NC1=O — Emax (Tumor necrosis factor receptor superfamily member 9/Nectin-4; reporter gene, agonist; HT-1376 coculture with reporter cells; reference: background): 76 fold
Nc1nc2c(ncn2[C@@H]2O[C@H](COP(=O)(O)O)[C@@H](O)[C@H]2O)c(=O)[nH]1 — reaction velocity (GUK1 (Homo sapiens, UniProt Q16774); enzyme activity, NADH-coupled; 15.62 µM, added: NaCl 50 mM): 0.00566 µM/s and 0.0304 µM/s and 0.0326 µM/s
Oc1ccccc1-c1n[nH]cc1-c1ccnc2ccccc12 — log2 fold change (HOG1; kinase binding, MIB/MS competition; Candida albicans lysate; 1 µM; reference: DMSO, negative = stronger binding): -0.11
Cn1cc(-c2ccc(-c3cncc(Cl)c3N3CCC4(CCNC4=O)CC3)cc2)cn1 — log2 fold change (COLO 205; gene expression, microarray, refers to: ARHGEF39 mRNA; concentration not given, 2 h; reference: untreated cells): -2.46
CC[C@H](C)C(=O)O[C@H]1C[C@H](O)C=C2C=C[C@H](C)[C@H](CC[C@@H](O)C[C@@H](O)CC(=O)O)[C@H]21 — activation (Nuclear receptor subfamily 4 group A member 1 (NR4A1, Homo sapiens, UniProt P22736); reporter gene, NBRE reporter full-length; 10 µM; reference: vehicle): 1.06 fold
N#Cc1ccn2c(-c3ccncc3)c(-c3ccc(F)cc3)nc2c1 — log2 fold change (HOG1; MIB/MS competition binding; Candida albicans cell lysate; 1 µM; reference: DMSO, lower = stronger binding): -0.634
C[C@H]1O[C@@H](O[C@H]2CC[C@@]3(C)[C@@H](CC[C@]4(C)[C@@H]3C=C[C@]35OC[C@@]6(CCC(C)(C)C[C@H]63)[C@@H](O)C[C@]54C)[C@]2(C)CO)[C@H](O)[C@@H](O[C@@H]2O[C@H](CO)[C@@H](O)[C@H](O)[C@H]2O)[C@H]1O — MST normalised fluorescence (SIRT1 (Homo sapiens, UniProt Q96EB6); binding, microscale thermophoresis; 161 nM): 885 a.u.
CC1CCCN(C(=O)c2cc3ncccn3n2)C1 (centres unmarked) — log fold enrichment (ATP-dependent RNA helicase DDX1 (Homo sapiens, UniProt Q92499); binding, affinity selection mass spectrometry; reference: other proteins in batch): -0.168
NCCCCC(=O)O — normalised MST signal (SLC6A6 (Homo sapiens, UniProt P31641, Y138A); binding, microscale thermophoresis; 31.3 µM, room temperature, added: 50 nM labelled protein; higher = more binding): 0.0198
CCCC[C@@H]1NC(=O)[C@H](Cc2ccc(O)cc2)NC(=O)[C@@H]2CCCN2C(=O)[C@H](CC(=O)O)NC(=O)[C@H](C)NC(=O)[C@H](Cc2ccccc2)NC(=O)[C@@H]2CSCCC(=O)N3CN(CN(C3)C(=O)CCSC[C@@H](C(=O)N[C@@H](C)C(N)=O)NC1=O)C(=O)CCSC[C@H](NC(C)=O)C(=O)N[C@@H](CC(C)(C)C)C(=O)N1CCC[C@H]1C(=O)N[C@@H](CCC(=O)O)C(=O)N[C@H](CCCCNC(=O)CCc1cn(CCOCCOCCOCCOCCOCCC(=O)NCCCC[C@H]3NC(=O)[C@H](Cc4cccc5ccccc45)NC(=O)[C@@H]4CCCN4C(=O)CCSCCC(=O)N4CN5CN(C4)C(=O)CCSC[C@H](NC3=O)C(=O)N[C@@H](CCSC)C(=O)N[C@@H](CCCCNC(=N)N)C(=O)N[C@@H](CC(=O)O)C(=O)N[C@@H](Cc3c[nH]c4ccccc34)C(=O)N[C@@H](CO)C(=O)N[C@@H]([C@@H](C)O)C(=O)N3CCC[C@H]3C(=O)N3C[C@H](O)C[C@H]3C(=O)N[C@@H](Cc3c[nH]c4ccccc34)C(=O)N[C@H](C(N)=O)CSCCC5=O)nn1)C(=O)N1CCC[C@H]1C(=O)N[C@@H](Cc1ccc(O)cc1)C(=O)N2 — Emax (Tumor necrosis factor receptor superfamily member 9/Nectin-4; reporter gene, agonist; HT-1376 coculture with reporter cells; reference: background): 43 fold
NCc1ccccc1 — enzyme activity (AOC3 (Homo sapiens, UniProt Q16853); substrate turnover, SSAO/VAP-1 oxidation; concentration not given, unit not given; reference: DMSO control): 27.4 and 31.6 and 27.9 and 30 and 33.6 and 31.5 and 28.4 and 32.6
Cc1ccc(OC[C@H]2CN(CCN3CCc4ccccc43)CCO2)cn1 — inhibition (HTR5A (Homo sapiens, UniProt P47898); radioligand binding; concentration not given, added: [3H]LSD): -9.3%
N=C(N)NCCC[C@H](N)C(=O)O — binding enthalpy ΔH (uncharacterized protein (Pelagibacter ubique, UniProt Q4FLC2); isothermal titration calorimetry; Candidatus Pelagibacter ubique; concentration not given, displacement titration, added: octopine competitor 250 µM): -4.46 kcal/mol and -4.47 kcal/mol
Nc1ncnc2c1ncn2[C@@H]1O[C@H](COP(=O)(O)OP(=O)(O)OP(=O)(O)O)[C@@H](O)[C@H]1O — nucleotide addition rate constant (DNA-directed RNA polymerase subunit beta' / DNA-directed RNA polymerase subunit beta (rpoC/rpoB, Escherichia coli, UniProt P0A8T7+P0A8V2); transcription elongation, rapid chemical quench-flow; fast complex fraction, i+2→i+1, added: NTP 200 µM): 36 ± 2 s⁻¹
[O-][S+]1CCCCS1 (centres unmarked) — SOD1 dimer fraction (SOD1 (Homo sapiens, UniProt P00441, G94A); LC-MS; human whole blood; 10000 µM, 1 h, 37 °C): 100%
CCC1(O)CCCN(C(=O)c2ccc(-c3ccc(F)c(NC(=O)CCl)c3)cc2)C1 (centres unmarked) — unmodified protein (DNA dC->dU-editing enzyme APOBEC-3A (Homo sapiens, UniProt P31941); covalent adduct, intact protein MS; 1 h, 10-fold excess, 250 µM): 0%
Cc1ncsc1-c1ccc([C@H](C)NC(=O)[C@@H]2C[C@@H](O)CN2C(=O)[C@@H](NC(=O)COCCOCCOCCOCCOCC(=O)N2CC(Nc3cc(C(=O)NC[C@H](O)CN4CCc5ccccc5C4)ncn3)C2)C(C)(C)C)cc1 — time to degradation (PRMT5 (Homo sapiens, UniProt O14744); degrader, Western blot; MDA-MB-468; 2 µM): 12 h
CC(=O)N[C@H](C(=O)N1C[C@H](O)C[C@H]1C(=O)NCc1ccc(-c2scnc2C)cc1)C(C)(C)SCCCCCCNC(=O)C[C@@H]1N=C(c2ccc(Cl)cc2)c2c(sc(C)c2C)-n2c(C)nnc21 — ΔG (Bromodomain-containing protein 2, BD2 (BRD2, Homo sapiens, UniProt P25440); binding, ITC; 25 °C, compound in cell, protein in syringe): -9.59 ± 0.06 kcal/mol
CCOc1c([C@H](C)n2nc(C)c3c(N)ncnc32)cc(Cl)c(F)c1[C@@H]1CNC(=O)C1 — ECG observations (refers to: QTcF change above 60 ms; previously treated B-cell malignancy; oral, 10 mg once daily, overall population; reference: baseline): 0%
CC(C)C[C@H](NC(=O)C[C@H](O)[C@H](CC(C)C)NC(=O)[C@H](Cc1c[nH]cn1)NC(=O)CNC(=O)[C@@H](NC(=O)[C@H](C)NC(=O)[C@H](Cc1c[nH]c2ccccc12)NC(=O)[C@H](CCC(N)=O)NC(=O)[C@@H](Cc1ccccc1)NC(=O)COCCOCCNC(=O)CCC(C(=O)O)N1CCN(CC(=O)O)CCN(CC(=O)O)CCN(CC(=O)O)CC1)C(C)C)C(N)=O (some centres unmarked) [lutetium-177 labelled] — tissue uptake (female BALB/c nu/nu mice, pancreas; intravenous, 100 pmol, 24 h, added: PA 300 µg): 0.024 ± 0.004 %ID/g
COc1ccccc1-c1n[nH]c2nc(N[C@H]3CC[C@H](NS(=O)(=O)CCCOCCOCCNC(=O)OC(C)(C)C)CC3)ncc12 — log2 SILAC ratio heavy/light (Leishmania donovani MPK (LinJ.36.6760/LinJ.30.0370); resin binding competition; promastigote lysate; 10 µM; reference: DMSO): 1.96
CC(C)C[C@H](NC(=O)C[C@H](O)[C@H](CC(C)C)NC(=O)[C@H](Cc1c[nH]cn1)NC(=O)CNC(=O)[C@@H](NC(=O)[C@H](C)NC(=O)[C@H](Cc1c[nH]c2ccccc12)NC(=O)[C@H](CCC(N)=O)NC(=O)[C@@H](Cc1ccccc1)NC(=O)COCCOCCNC(=O)CN1CCN(CC(=O)O)CCN(CC(=O)O)CCN(CC(=O)O)CC1)C(C)C)C(N)=O [lutetium-177 labelled] — tissue uptake (female BALB/c nu/nu mice, muscle; intravenous, 50 pmol, 1 h): 0.1 ± 0.03 %ID/g
Cc1cc2nc3[nH]c(=O)[nH]c(=O)c3nc2cc1C — Kd (T2, riboswitch RNA yjdF aptamer, L3 replaced by GAAA (Bacillus subtilis); fluorescence titration; added: 380 nM lumichrome): 0.09 µM
COCCNc1nc(Oc2cccc3[nH]c(=O)c(N)nc23)cc(-c2ccc(C(F)(F)F)cc2)n1 — reversal potential change (TRPV1; antagonist, automated patch clamp; HEK-293T expressing hTRPV1; 1 µM, added: 100 nM capsaicin): -16.1 ± 0.3 mV
COc1cc(CNC(=O)CCCC/C=C/C(C)C)ccc1O — closed time constant (TRPV1; channel gating, single-channel inside-out patch; 100 nM, component 3 of four): 8 ms
Nc1ncnc2c1ncn2[C@@H]1O[C@H](COP(=O)(O)OP(=O)(O)OP(=O)(O)O)[C@@H](O)[C@H]1O — Km (rep, dimer, ssDNA-bound (Escherichia coli, UniProt P09980, W250A); substrate): 2.8 µM

A few entries again:
CC(C)C[C@H](NC(=O)C[C@H](O)[C@H](CC(C)C)NC(=O)[C@H](Cc1c[nH]cn1)NC(=O)CNC(=O)[C@@H](NC(=O)[C@H](C)NC(=O)[C@H](Cc1c[nH]c2ccccc12)NC(=O)[C@H](CCC(N)=O)NC(=O)[C@@H](Cc1ccccc1)NC(=O)COCCOCCNC(=O)CN1CCN(CC(=O)O)CCN(CC(=O)O)CCN(CC(=O)O)CC1)C(C)C)C(N)=O [lutetium-177 labelled] — tissue uptake (female BALB/c nu/nu mice, muscle; intravenous, 50 pmol, 1 h): 0.1 ± 0.03 %ID/g
Cc1ncsc1-c1ccc([C@H](C)NC(=O)[C@@H]2C[C@@H](O)CN2C(=O)[C@@H](NC(=O)COCCOCCOCCOCCOCC(=O)N2CC(Nc3cc(C(=O)NC[C@H](O)CN4CCc5ccccc5C4)ncn3)C2)C(C)(C)C)cc1 — time to degradation (PRMT5 (Homo sapiens, UniProt O14744); degrader, Western blot; MDA-MB-468; 2 µM): 12 h
